Assay results of several laboratories.
Each line is one published result; not all experiments were run side by side.
Organism: Pseudomonas aeruginosa

CN[C@H](CC(C)C)C(=O)N[C@H]1C(=O)N[C@@H](CC(N)=O)C(=O)N[C@H]2C(=O)N[C@H]3C(=O)N[C@H](C(=O)N[C@H](C(=O)O)c4cc(O)cc(O)c4-c4cc3ccc4O)[C@H](O)c3ccc(c(Cl)c3)Oc3cc2cc(c3O[C@@H]2O[C@H](CO)[C@@H](O)[C@H](O)[C@H]2O[C@H]2C[C@](C)(NCc3ccc(OCc4cn(CCCCC(=O)N[C@H](C(=O)N[C@@H](CCN)C(=O)N[C@H]5CCNC(=O)[C@H]([C@@H](C)O)NC(=O)[C@H](CCN)NC(=O)[C@H](CCN)NC(=O)[C@H](CC(C)C)NC(=O)[C@@H](CC(C)C)NC(=O)[C@H](CCN)NC5=O)[C@@H](C)O)nn4)c(OC)c3)[C@H](O)[C@H](C)O2)Oc2ccc(cc2Cl)[C@H]1O  MIC (broth microdilution; ATCC 10145, cation-adjusted Mueller-Hinton broth): 24 µM
CC[C@H](C)[C@H](NC(=O)[C@H](CCCCN)NC(=O)[C@@H](NC(=O)[C@@H](NC(=O)[C@H](CC(C)C)NC(=O)[C@H](CCCNC(=N)N)NC(=O)[C@@H](NC(=O)[C@H](CC(C)C)NC(=O)[C@H](CCCNC(=N)N)NC(=O)CNC(=O)[C@H](Cc1ccccc1)NC(=O)[C@@H](N)CCCNC(=N)N)[C@@H](C)CC)[C@@H](C)CC)C(C)C)C(=O)N[C@@H](C)C(=O)N[C@@H](CCCNC(=N)N)C(=O)N[C@@H](CCCNC(=N)N)C(=O)N[C@@H](C)C(=O)N[C@@H](Cc1c[nH]cn1)C(=O)N[C@@H](CCCNC(=N)N)C(=O)N[C@@H](C)C(=O)N[C@@H](CCCNC(=N)N)C(=O)N[C@@H](CO)C(=O)N[C@@H](C)C(=O)N[C@H](C(=O)N[C@@H](CCCCN)C(=O)N[C@@H](C)C(=O)N[C@@H](C)C(=O)N[C@@H](CO)C(=O)N[C@@H](CC(N)=O)C(=O)N[C@H](C(=O)N[C@@H](C)C(=O)N[C@@H](C)C(=O)N[C@@H](CC(C)C)C(=O)N[C@@H](C)C(=O)N[C@@H](Cc1c[nH]cn1)C(=O)NCC(=O)N[C@@H](C)C(N)=O)C(C)C)C(C)C  MIC (bacterial growth, broth microdilution; cation-adjusted Mueller Hinton broth; 18 h, 37 °C): ≤ 0.064 µM
CC(=O)N[C@H](Cc1ccccc1F)C(=O)N[C@@H](CCN)C(=O)N[C@H](C(=O)N[C@@H](CCN)C(=O)N[C@H]1CCNC(=O)[C@H]([C@@H](C)O)NC(=O)[C@H](CCN)NC(=O)[C@H](CCN)NC(=O)[C@H](CC(C)C)NC(=O)[C@@H](Cc2ccccc2)NC(=O)[C@H](CCN)NC1=O)[C@@H](C)O  MIC (broth microdilution; colistin-resistant isolates): > 64 µg/mL
CC[C@H](C)[C@H](NC(=O)[C@@H](CCCNC(=N)N)NC(=O)[C@H](CCCNC(=N)N)NC(=O)[C@@H]1CCCN1C(=O)[C@@H]1CCCN1C(=O)[C@H](CCCNC(=N)N)NC(=O)[C@@H]1CCCN1C(=O)[C@H](CCCNC(=N)N)NC(=O)[C@@H]1CCCN1C(=O)[C@H](CC(C)C)NC(=O)[C@H](Cc1c[nH]cn1)NC(=O)[C@@H]1CCCN1C(=O)[C@@H]1CCCN1C(=O)[C@H](CCCCN)NC(=O)[C@H](CC(=O)O)NC(=O)[C@@H](N)C(C)C)C(=O)N[C@@H](Cc1ccc(O)cc1)C(=O)N[C@@H](CC(N)=O)C(=O)N[C@H](CCCNC(=N)N)C(N)=O  MIC (broth microdilution; DSM 1117; 18 h, 37 °C, 25% MHB2): 64 µg/mL
CN[C@@H]1[C@H](O)[C@H](NC)[C@H]2O[C@]3(O)[C@H](O[C@@H]2[C@H]1O)O[C@H](C)C[C@H]3NC(=O)Cc1ccccn1  MIC (microbial growth, broth dilution; PAO1): 100 µg/mL
C#CCOc1ccc(CN[C@@]2(C)C[C@H](O[C@H]3[C@H](Oc4c5cc6cc4Oc4ccc(cc4Cl)[C@@H](O)[C@@H](NC(=O)[C@@H](CC(C)C)NC)C(=O)N[C@@H](CC(N)=O)C(=O)N[C@H]6C(=O)N[C@H]4C(=O)N[C@H](C(=O)N[C@H](C(=O)NCC(N)=O)c6cc(O)cc(O)c6-c6cc4ccc6O)[C@H](O)c4ccc(c(Cl)c4)O5)O[C@H](CO)[C@@H](O)[C@@H]3O)O[C@@H](C)[C@H]2O)cc1OC  MIC (broth microdilution; ATCC 27853, cation-adjusted Mueller-Hinton broth; 18 to 20 h, 37 °C, 0.002% polysorbate 80): > 128 µg/mL
CC[C@H](C)[C@H](NC(=O)[C@@H](CCCNC(=N)N)NC(=O)[C@H](CCCNC(=N)N)NC(=O)[C@@H]1CCCN1C(=O)[C@@H]1CCCN1C(=O)[C@H](CCCNC(=N)N)NC(=O)[C@@H]1CCCN1C(=O)[C@H](CCCNC(=N)N)NC(=O)[C@@H]1CCCN1C(=O)[C@H](CC(C)C)NC(=O)[C@H](Cc1ccc(O)cc1)NC(=O)[C@@H]1CCCN1C(=O)[C@@H]1CCCN1C(=O)[C@H](CCCCN)NC(=O)[C@H](CC(=O)O)NC(=O)[C@@H](N)C(C)C)C(=O)N[C@@H](Cc1ccc(O)c([N+](=O)[O-])c1)C(=O)N[C@@H](CC(N)=O)C(=O)N[C@H](CCCNC(=N)N)C(N)=O  MIC (broth microdilution; DSM 1117; 18 h, 37 °C, 25% MHB2): > 128 µg/mL
C#CCOc1ccc(CN[C@@]2(C)C[C@H](O[C@H]3[C@H](Oc4c5cc6cc4Oc4ccc(cc4Cl)[C@@H](O)[C@@H](NC(=O)[C@@H](CC(C)C)NC)C(=O)N[C@@H](CC(N)=O)C(=O)N[C@H]6C(=O)N[C@H]4C(=O)N[C@H](C(=O)N[C@H](C(=O)N[C@@H](CCCNC(=N)N)C(N)=O)c6cc(O)cc(O)c6-c6cc4ccc6O)[C@H](O)c4ccc(c(Cl)c4)O5)O[C@H](CO)[C@@H](O)[C@@H]3O)O[C@@H](C)[C@H]2O)cc1OC  MIC (broth microdilution; ATCC 27736, cation-adjusted Mueller-Hinton broth): 72 µM
CCn1c(-c2ccc(OC)cc2)c(-c2ccc(OC)cc2)n(Cc2c(C)cc(C)cc2C)c1=[Se]  MIC (broth microdilution; carbapenem-resistant BAA-2108; 24 h): > 40 µM

Some of these lines once more:
CC[C@H](C)[C@H](NC(=O)[C@@H](CCCNC(=N)N)NC(=O)[C@H](CCCNC(=N)N)NC(=O)[C@@H]1CCCN1C(=O)[C@@H]1CCCN1C(=O)[C@H](CCCNC(=N)N)NC(=O)[C@@H]1CCCN1C(=O)[C@H](CCCNC(=N)N)NC(=O)[C@@H]1CCCN1C(=O)[C@H](CC(C)C)NC(=O)[C@H](Cc1c[nH]cn1)NC(=O)[C@@H]1CCCN1C(=O)[C@@H]1CCCN1C(=O)[C@H](CCCCN)NC(=O)[C@H](CC(=O)O)NC(=O)[C@@H](N)C(C)C)C(=O)N[C@@H](Cc1ccc(O)cc1)C(=O)N[C@@H](CC(N)=O)C(=O)N[C@H](CCCNC(=N)N)C(N)=O  MIC (broth microdilution; DSM 1117; 18 h, 37 °C, 25% MHB2): 64 µg/mL
